Measured values collected from several papers.
Values joined by “and” are separate records of one study, mostly repeats; a detail may differ. Numbers after ± are the reported error.
prp N63Q: Ribosomal processing cysteine protease Prp (prp, Staphylococcus aureus, UniProt Q2FXS9, N63Q)
F2: Prothrombin (F2, Homo sapiens, UniProt P00734)
Sequence of UniProt Q06187 (whole entry, looked up): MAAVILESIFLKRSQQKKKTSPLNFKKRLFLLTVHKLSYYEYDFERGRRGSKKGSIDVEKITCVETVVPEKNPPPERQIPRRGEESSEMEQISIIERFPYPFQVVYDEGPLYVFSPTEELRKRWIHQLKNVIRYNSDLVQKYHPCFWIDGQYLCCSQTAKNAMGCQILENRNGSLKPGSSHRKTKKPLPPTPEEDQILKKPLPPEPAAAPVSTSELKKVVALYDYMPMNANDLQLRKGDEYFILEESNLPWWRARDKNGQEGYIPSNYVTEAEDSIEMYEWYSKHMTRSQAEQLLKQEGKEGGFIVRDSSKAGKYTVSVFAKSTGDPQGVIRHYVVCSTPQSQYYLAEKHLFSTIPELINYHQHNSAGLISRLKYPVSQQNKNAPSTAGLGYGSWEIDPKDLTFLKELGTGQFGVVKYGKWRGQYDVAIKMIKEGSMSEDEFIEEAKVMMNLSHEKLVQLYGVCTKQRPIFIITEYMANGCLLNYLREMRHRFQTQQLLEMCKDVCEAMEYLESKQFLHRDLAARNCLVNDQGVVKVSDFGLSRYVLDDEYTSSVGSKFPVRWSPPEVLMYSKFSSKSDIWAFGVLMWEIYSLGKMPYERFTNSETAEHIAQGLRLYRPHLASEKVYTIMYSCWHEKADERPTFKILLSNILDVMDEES
Sequence of UniProt P11802 (whole entry, looked up): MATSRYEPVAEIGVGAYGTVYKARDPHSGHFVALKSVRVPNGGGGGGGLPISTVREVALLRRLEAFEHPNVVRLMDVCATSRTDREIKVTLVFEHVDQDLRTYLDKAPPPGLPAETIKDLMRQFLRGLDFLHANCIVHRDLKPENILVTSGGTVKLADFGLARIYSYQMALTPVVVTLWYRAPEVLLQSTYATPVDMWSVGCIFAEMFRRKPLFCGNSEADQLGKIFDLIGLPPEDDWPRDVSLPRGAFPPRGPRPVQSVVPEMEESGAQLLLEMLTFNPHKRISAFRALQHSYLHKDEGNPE
Sequence of UniProt P23141 (whole entry, looked up): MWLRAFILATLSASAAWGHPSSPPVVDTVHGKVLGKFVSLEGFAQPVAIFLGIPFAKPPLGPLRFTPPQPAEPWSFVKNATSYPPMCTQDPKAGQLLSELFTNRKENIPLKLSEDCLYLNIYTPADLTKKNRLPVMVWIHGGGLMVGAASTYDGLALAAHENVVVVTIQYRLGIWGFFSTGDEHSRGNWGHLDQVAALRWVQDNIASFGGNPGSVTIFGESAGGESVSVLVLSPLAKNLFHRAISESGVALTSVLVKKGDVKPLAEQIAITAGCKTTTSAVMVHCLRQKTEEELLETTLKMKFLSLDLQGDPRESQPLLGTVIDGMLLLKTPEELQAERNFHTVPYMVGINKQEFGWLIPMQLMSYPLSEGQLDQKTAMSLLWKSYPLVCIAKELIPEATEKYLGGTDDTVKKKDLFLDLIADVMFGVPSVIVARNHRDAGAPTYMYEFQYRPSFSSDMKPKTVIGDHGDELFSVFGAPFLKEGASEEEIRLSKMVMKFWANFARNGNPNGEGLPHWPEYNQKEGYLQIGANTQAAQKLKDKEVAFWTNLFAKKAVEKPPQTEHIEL
Sequence of UniProt P35368 (whole entry, looked up): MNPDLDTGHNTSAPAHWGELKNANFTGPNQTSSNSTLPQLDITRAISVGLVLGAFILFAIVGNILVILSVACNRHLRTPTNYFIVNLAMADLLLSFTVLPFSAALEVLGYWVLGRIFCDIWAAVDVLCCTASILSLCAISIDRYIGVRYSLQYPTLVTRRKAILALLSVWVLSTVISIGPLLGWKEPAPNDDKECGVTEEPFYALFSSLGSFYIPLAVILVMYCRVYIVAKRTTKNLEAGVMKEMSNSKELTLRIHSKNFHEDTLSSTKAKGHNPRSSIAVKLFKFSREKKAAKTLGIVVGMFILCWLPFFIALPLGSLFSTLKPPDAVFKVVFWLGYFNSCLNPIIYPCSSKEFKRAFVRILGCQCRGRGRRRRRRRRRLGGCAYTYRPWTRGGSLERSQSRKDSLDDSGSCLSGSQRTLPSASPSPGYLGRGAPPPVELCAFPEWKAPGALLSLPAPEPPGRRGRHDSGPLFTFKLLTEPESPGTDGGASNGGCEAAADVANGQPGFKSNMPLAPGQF
Sequence of UniProt P37288 (whole entry, looked up): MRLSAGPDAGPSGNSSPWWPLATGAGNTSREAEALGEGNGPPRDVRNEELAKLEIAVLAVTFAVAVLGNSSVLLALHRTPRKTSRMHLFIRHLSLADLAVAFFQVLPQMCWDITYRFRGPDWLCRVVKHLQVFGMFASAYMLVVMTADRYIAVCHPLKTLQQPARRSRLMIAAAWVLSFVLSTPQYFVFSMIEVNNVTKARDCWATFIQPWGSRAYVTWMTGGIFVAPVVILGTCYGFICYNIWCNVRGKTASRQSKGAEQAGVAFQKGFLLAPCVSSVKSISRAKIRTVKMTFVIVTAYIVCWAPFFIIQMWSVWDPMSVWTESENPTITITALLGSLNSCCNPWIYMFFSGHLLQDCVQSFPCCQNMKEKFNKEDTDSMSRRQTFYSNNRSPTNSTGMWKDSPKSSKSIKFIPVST
Sequence of UniProt P19525 (whole entry, looked up): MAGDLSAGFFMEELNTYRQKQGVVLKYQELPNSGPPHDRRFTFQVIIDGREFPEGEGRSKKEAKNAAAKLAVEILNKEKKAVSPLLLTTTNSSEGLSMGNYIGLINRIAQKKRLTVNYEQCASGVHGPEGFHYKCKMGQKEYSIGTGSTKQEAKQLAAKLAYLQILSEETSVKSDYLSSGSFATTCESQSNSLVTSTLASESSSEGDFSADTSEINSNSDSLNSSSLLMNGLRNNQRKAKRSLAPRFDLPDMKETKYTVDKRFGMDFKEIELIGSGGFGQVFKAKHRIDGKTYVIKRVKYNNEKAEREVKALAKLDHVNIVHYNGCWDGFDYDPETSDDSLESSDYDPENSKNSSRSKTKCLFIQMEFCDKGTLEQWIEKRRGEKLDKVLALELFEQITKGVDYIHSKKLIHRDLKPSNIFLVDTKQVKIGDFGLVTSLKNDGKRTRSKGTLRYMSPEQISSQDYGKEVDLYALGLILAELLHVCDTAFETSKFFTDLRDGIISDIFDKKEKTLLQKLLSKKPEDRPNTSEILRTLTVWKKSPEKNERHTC
Sequence of UniProt O60741 (whole entry, looked up): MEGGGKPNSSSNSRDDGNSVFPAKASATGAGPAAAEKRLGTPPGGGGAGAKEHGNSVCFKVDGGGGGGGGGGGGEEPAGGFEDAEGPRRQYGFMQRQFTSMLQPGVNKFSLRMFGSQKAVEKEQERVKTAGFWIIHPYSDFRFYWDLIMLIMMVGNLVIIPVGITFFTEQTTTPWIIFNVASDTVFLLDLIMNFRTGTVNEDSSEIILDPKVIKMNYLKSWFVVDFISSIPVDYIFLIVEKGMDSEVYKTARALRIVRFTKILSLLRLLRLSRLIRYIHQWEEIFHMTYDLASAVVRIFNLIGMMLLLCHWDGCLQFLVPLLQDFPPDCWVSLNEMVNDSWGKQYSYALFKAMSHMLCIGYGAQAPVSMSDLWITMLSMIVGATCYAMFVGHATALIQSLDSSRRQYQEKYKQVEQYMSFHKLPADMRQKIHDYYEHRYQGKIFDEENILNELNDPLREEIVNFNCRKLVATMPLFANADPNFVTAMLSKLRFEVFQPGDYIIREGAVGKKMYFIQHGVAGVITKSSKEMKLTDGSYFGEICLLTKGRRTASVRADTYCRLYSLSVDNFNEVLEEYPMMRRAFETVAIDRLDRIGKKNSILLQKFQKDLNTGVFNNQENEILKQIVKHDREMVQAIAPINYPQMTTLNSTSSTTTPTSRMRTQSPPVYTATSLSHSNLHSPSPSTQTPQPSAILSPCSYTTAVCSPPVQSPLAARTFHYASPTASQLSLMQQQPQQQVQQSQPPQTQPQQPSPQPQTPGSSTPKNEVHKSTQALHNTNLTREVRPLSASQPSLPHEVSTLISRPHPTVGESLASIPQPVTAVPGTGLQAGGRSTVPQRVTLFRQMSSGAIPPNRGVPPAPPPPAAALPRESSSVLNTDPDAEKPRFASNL
Sequence of UniProt P18031 (whole entry, looked up): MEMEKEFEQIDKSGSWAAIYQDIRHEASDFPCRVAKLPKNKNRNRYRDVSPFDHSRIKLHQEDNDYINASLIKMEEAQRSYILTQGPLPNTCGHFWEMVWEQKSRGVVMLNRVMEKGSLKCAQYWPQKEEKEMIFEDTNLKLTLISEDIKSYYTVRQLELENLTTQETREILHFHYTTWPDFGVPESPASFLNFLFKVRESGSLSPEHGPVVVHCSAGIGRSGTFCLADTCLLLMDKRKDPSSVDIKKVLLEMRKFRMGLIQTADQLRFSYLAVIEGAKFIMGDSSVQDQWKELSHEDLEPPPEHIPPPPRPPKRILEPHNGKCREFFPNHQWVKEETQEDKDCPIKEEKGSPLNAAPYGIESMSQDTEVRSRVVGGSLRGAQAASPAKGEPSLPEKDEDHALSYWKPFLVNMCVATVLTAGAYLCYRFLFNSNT
Sequence of UniProt P08913 (whole entry, looked up): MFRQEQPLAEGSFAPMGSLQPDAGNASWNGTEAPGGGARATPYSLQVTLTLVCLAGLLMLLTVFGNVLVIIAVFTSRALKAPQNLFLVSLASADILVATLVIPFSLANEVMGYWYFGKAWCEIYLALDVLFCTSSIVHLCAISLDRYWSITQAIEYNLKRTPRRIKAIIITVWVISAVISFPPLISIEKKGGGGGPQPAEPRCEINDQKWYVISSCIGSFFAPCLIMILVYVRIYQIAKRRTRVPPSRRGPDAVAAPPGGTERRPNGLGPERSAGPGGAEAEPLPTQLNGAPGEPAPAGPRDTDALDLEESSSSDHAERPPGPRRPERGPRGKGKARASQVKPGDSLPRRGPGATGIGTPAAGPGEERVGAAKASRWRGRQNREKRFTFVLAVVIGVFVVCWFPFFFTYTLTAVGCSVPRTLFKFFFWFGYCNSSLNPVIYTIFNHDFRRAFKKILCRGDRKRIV

| Structure (SMILES) | target | test | system | conditions | inhibition |
| --- | --- | --- | --- | --- | --- |
| CC(C)CCNC(=O)[C@H](CC(C)C)NC(=O)[C@H]1O[C@@H]1C(=O)O | prp N63Q | enzyme activity | – | 10 µM, 21.4 nM enzyme dimer, with: 0.5 µM FITC-labelled peptide substrate | 20 ± 7.1% |
| CN(C(=O)n1cnc(-c2ccc[n+]([O-])c2)c1)C1CCCCC1 | Vasopressin V1a receptor (AVPR1A, Homo sapiens, UniProt P37288) | radioligand binding | – | 50 µM | -10% |
| O=C(Nc1cccc(C(=O)Nc2ccc3c(c2)B(O)OC3)c1)c1ccccc1 | F2 | enzyme activity | – | 50 µM, with: substrate 50 µM | ≤ 10% |
| C=C(C)[C@@H]1CC[C@@H](C)[C@@H]2CCC(C)=C[C@@H]21 | Tyrosine-protein phosphatase non-receptor type 1 (PTPN1, Homo sapiens, UniProt P18031) | enzyme activity, inhibitor | – | 115 µM, with: pNPP substrate | ~50% |
| COc1cc(Nc2ncc(F)c(Nc3ccc4c(n3)NC(=O)C(C)(C)O4)n2)cc(OC)c1OC | Cyclin-dependent kinase 4 (CDK4, Homo sapiens, UniProt P11802) | KINOMEscan | – | 10 µM, -cyclinD1 | 0% |
| CC(C)N1CCC[C@H]1CNC(=O)c1cn(C2CCCC2)c(=O)c2c1c1ccccc1n2C | imidazoline I2 receptor, rat brain | radioligand binding | – | 10 µM | 15% |
| Cc1ncc(C)n2nc(/C=C/c3nc(N4CCCC4)cc(N4CCOCC4)n3)nc12 | SKCa potassium channel | radioligand binding | – | 10 µM | 4% |
| Cn1cccc1-c1cccnc1 | Alpha-2A adrenergic receptor (ADRA2A, Homo sapiens, UniProt P08913) | binding | – | 50 µM | 5.73% |
| CC[C@H](C)[C@H](NC(=O)[C@@H](NC(=O)[C@H](N)Cc1ccccc1)C(C)C)C(=O)N[C@@H](C)C(N)=O | Amyloid-beta precursor protein (APP, Homo sapiens, UniProt P05067) | amyloid-beta aggregation, thioflavin T fluorescence | – | 2.0 µM, 24 h, with: 2 µM amyloid-beta | 100% |
| CCCCCC(=O)Nc1ccc2c(c1)B(O)OC2 | F2 | enzyme activity | – | 50 µM, with: substrate 50 µM | ≤ 10% |
| O=c1ccc2ccccc2o1 | voltage-gated sodium channel site 2 | radioligand binding, antagonist | – | 10 µM | -1.86% |
| CN(CCN1CCC(OC(=O)Nc2ccccc2-c2ccccc2)CC1)C(=O)c1ccc(CN2CCC(C(N)=O)CC2)cc1 | tyrosine hydroxylase | enzyme activity | – | 1 µM | -10% |
| O=[N+]([O-])c1ccc(O)c(Cc2cc([N+](=O)[O-])ccc2O)c1 | hexokinase and G6P dehydrogenase | NADPH formation rate | – | up to 25 µM, with: ATP | no inhibition |
| O=C(O)CC[C@H]1CC[C@@](c2cc(F)ccc2F)(S(=O)(=O)c2ccc(Cl)cc2)CC1 | prp N63Q | enzyme activity, inhibitor | – | 10 µM, prp 21.4 nM, with: FITC peptide substrate 0.5 µM | 30.9 ± 9.5% |
| O=C(Nc1ccc2c(c1)B(O)OC2)c1cccc(NCc2ccccc2)c1 | F2 | enzyme activity | – | 50 µM, with: substrate 50 µM | ≤ 10% |
| C[C@H](NC(=O)Cc1cc(F)cc(F)c1)C(=O)N[C@@H]1C(=O)N(C)c2ccccc2-c2ccccc21 | prp N63Q | enzyme activity | – | 10 µM, 21.4 nM enzyme dimer, with: 0.5 µM FITC-labelled peptide substrate | -15.5 ± 6.6% |
| CN1CCN(c2cc(-c3ccncc3)c(-c3ccc4ccccc4c3)nn2)CC1 | Alpha-1B adrenergic receptor (ADRA1B, Homo sapiens, UniProt P35368) | antagonist, FLIPR | – | 10 µM | 15.9% |
| CC(NC(=O)[C@H](Cc1ccccc1)NC(=O)OCc1ccccc1)C(=O)CF (some centres unmarked) | prp N63Q | enzyme activity | – | 10 µM, 21.4 nM enzyme dimer, with: 0.5 µM FITC-labelled peptide substrate | -16 ± 4.1% |

| Structure (SMILES) | target | test | system | conditions | inhibition |
| --- | --- | --- | --- | --- | --- |
| O=C(Nc1cnccc1Cl)N1CCN(Cc2ccc3c(c2)OC(F)(F)O3)CC1 | Nociceptin receptor (OPRL1, Homo sapiens, UniProt P41146) | radioligand binding, inhibitor | – | 50 µM, human, with: [3H]nociceptin | 2% |
| CNCCCC12CCC(c3ccccc31)c1ccccc12 | Potassium/sodium hyperpolarization-activated cyclic nucleotide-gated channel 1 (Homo sapiens, UniProt O60741) | ion current | – | 10 µM | 2.79% |
| COC(=O)N[C@H](C(=O)N1CCC[C@H]1c1nc(-c2ccc(-c3ccc(-c4c[nH]c([C@@H]5CCCN5C(=O)[C@@H](NC(=O)OC)C(C)C)n4)cc3)cc2)c[nH]1)C(C)C | prp N63Q | enzyme activity, inhibitor | – | 10 µM, prp 21.4 nM, with: FITC peptide substrate 0.5 µM | 21.1 ± 4.6% |
| O=C(Nc1cccnn1)N1CCC(=Cc2cccc(Oc3ccc(C(F)(F)F)cn3)c2)CC1 | Myotonin-protein kinase (DMPK, Homo sapiens, UniProt Q09013) | kinase activity, inhibitor | – | 10 µM, with: Axltide substrate | 1% |
| CC(=O)NC[C@H]1[C@H](O)[C@H](O)[C@@H]2[C@H](O)C[C@@H](CO)N21 | β-N-acetylglucosaminidase | enzyme activity, inhibitor, colorimetric | Canavalia ensiformis | 0.322 nM, with: p-nitrophenyl GlcNAc substrate | 34.6% and 33.1% |
| COc1c2c(cc3c1-c1c(cc4c(c1OC)OCO4)C[C@H](C)[C@H](C)C3)OCO2 | Liver carboxylesterase 1 (CES1, Homo sapiens, UniProt P23141) | intracellular hydrolysis, inhibitor, bioluminescence imaging | renal cells | 20 µM | inhibited |
| O=C(Nc1cccc(B(O)O)c1)c1cccc(OCc2ccccc2)c1 | F2 | enzyme activity | – | 50 µM, with: substrate 50 µM | ≤ 10% |
| Cn1cc(-c2cc(F)cc(N3CCn4c(cc5c4CCCC5)C3=O)c2CO)cc(Nc2ccc(N3CCN(C4COC4)CC3)cn2)c1=O | Tyrosine-protein kinase BTK (BTK, Homo sapiens, UniProt Q06187) | kinase activity | – | 0.1 µM | 91% |
| Cc1c(-c2ccnn2C)cc(C(=O)NCc2ccc(S(C)(=O)=O)cn2)c(=O)n1-c1cccc(C(F)(F)F)c1 | prp N63Q | enzyme activity, inhibitor | – | 10 µM, prp 21.4 nM, with: FITC peptide substrate 0.5 µM | 34.5 ± 6.3% |
| COc1ccc(N2C(=O)N(c3c(C)cccc3Cl)Cc3cnc(Nc4ccc(C5CCN(C)CC5)cc4OC)nc32)nc1 | Interferon-induced, double-stranded RNA-activated protein kinase (EIF2AK2, Homo sapiens, UniProt P19525) | kinase activity | – | 0.5 µM | 5% |
| O=C(N1CCC2(CC1)C[C@@H](CN1CCCCS1(=O)=O)CCO2)C1(c2ccccc2)CCCC1 | ATP-dependent RNA helicase DDX1 (Homo sapiens, UniProt Q92499) | ATPase activity | – | 50 µM | 0% |
| O=C(Nc1ccc2c(c1)B(O)OC2)c1cccc(Oc2ccccc2)c1 | F2 | enzyme activity | – | 50 µM, with: substrate 50 µM | ≤ 10% |
| CC(C)(C)C#Cc1cc(N(C(=O)[C@H]2CC[C@H](C)CC2)[C@H]2CC[C@H](O)CC2)c(C(=O)O)s1 | prp N63Q | enzyme activity, inhibitor | – | 10 µM, prp 21.4 nM, with: FITC peptide substrate 0.5 µM | 37.8 ± 28.1% |
| CC(C(=O)Nc1ccc2c(c1)B(O)OC2)c1cccc(Oc2ccccc2)c1 (centres unmarked) | F2 | enzyme activity | – | 50 µM, with: substrate 50 µM | ≤ 10% |
| O=C(COc1ccccc1Br)NCCc1nc2ccccc2[nH]1 | Beta-lactamase (ampC, Escherichia coli K-12, UniProt P00811) | enzyme activity, inhibitor | – | 100 µM, with: CENTA substrate | 0% |
| CC1=C(O)C(=O)C=C2C1=CC=C1[C@@]2(C)CC[C@@]2(C)[C@@H]3C[C@](C)(C(=O)O)CC[C@]3(C)CC[C@]12C | prp N63Q | enzyme activity, inhibitor | – | 10 µM, prp 21.4 nM, with: FITC peptide substrate 0.5 µM | -42.1 ± 6.7% |
| COCc1c(-c2cc3cc(C)cc(OC)c3s2)c2c(N)ncnn2c1CN1CCNC(=O)C1 | P2X purinergic receptor | radioligand binding | – | 10 µM | 11% |

Repeated from above:
| Structure (SMILES) | target | test | system | conditions | inhibition |
| --- | --- | --- | --- | --- | --- |
| COc1cc(Nc2ncc(F)c(Nc3ccc4c(n3)NC(=O)C(C)(C)O4)n2)cc(OC)c1OC | Cyclin-dependent kinase 4 (CDK4, Homo sapiens, UniProt P11802) | KINOMEscan | – | 10 µM, -cyclinD1 | 0% |
| CC(C)N1CCC[C@H]1CNC(=O)c1cn(C2CCCC2)c(=O)c2c1c1ccccc1n2C | imidazoline I2 receptor, rat brain | radioligand binding | – | 10 µM | 15% |
| Cc1ncc(C)n2nc(/C=C/c3nc(N4CCCC4)cc(N4CCOCC4)n3)nc12 | SKCa potassium channel | radioligand binding | – | 10 µM | 4% |
